{"data": "Measured values from different studies", "note": "Each numbered part is a random draw from the data of one study; scales do not carry over between parts.", "UniProt Q8NFD2, sequence (whole entry, looked up)": "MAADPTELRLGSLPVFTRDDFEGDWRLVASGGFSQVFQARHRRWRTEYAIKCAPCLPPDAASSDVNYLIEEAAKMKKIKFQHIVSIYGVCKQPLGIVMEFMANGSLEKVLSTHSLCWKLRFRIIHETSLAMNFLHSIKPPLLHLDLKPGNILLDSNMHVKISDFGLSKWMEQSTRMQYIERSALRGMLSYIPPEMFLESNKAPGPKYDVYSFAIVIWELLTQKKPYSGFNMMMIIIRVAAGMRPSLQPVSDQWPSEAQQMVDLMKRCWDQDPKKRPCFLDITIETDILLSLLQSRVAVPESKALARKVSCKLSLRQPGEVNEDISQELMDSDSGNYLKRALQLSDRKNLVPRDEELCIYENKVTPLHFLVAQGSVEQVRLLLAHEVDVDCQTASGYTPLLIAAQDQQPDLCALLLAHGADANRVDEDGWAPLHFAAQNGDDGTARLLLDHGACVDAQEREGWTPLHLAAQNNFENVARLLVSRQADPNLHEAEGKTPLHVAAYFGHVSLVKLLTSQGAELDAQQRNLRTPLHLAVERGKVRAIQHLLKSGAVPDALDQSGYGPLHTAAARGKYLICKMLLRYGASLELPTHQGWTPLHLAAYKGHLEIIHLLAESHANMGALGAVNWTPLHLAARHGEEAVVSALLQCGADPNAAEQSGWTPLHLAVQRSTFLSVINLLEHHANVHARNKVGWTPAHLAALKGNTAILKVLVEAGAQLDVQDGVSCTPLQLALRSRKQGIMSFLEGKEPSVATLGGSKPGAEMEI", "UniProt Q9HCP0, sequence (whole entry, looked up)": "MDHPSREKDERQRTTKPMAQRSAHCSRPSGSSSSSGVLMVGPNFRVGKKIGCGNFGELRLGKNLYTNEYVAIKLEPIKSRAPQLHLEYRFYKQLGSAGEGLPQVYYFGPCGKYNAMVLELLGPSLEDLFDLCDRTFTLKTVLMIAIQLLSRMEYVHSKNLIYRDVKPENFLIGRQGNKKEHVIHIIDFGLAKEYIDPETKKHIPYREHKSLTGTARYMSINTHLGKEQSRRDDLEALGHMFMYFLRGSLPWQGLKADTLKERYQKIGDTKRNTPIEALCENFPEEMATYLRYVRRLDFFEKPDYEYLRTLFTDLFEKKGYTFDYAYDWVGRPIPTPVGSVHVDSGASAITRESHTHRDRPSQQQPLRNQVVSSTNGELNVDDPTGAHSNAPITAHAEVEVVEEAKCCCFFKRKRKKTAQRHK", "UniProt Q9BXA7, sequence (whole entry, looked up)": "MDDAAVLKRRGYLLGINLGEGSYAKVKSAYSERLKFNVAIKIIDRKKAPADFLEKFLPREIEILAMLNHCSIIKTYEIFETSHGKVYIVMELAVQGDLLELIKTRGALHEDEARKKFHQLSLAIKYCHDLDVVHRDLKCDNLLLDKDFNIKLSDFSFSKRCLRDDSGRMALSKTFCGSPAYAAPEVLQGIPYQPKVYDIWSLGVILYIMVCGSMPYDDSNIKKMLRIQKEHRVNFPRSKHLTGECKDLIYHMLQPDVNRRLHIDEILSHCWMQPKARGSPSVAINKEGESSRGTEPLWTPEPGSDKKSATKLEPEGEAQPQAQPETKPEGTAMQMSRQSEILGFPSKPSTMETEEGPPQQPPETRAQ"}
{"data": "Set 1", "target": "Interferon regulatory factor 5, full length, phosphomimetic (IRF5, Homo sapiens, UniProt Q13568-2, residues 1-514, S451D/S453D/S456D/S462D)", "method": "protein-binding microarray", "form": "double-stranded DNA, one strand shown", "sample": "in vitro", "tested at": "940 nM top", "notes": "60-bp whole probe", "added": "salmon DNA 0.4 mg/ml", "relative to": "random background probes", "reading": "higher = stronger binding", "all sequences stand within": "GCCTAGCAC … GTGCTAGGTCTTGATTCGCTTGACGCTGCTG"}
{"Sequence": "GACGGTATCGGGATCGGGAC", "fitted relative affinity": "3.4 z-score"}
{"Sequence": "TTAGGTATCCTACTGCCTTA", "fitted relative affinity": "-0.0608 z-score"}
{"Sequence": "TTCGGTTTCCTTTTCCTTTA", "fitted relative affinity": "2.28 z-score"}
{"Sequence": "TCCATGACCTACCCTGCGTT", "fitted relative affinity": "-0.209 z-score"}
{"Sequence": "ATTGTTTCCTTCCTCTTTTA", "fitted relative affinity": "2.14 z-score"}
{"Sequence": "GACGCACTGGGTTTCGGGAC", "fitted relative affinity": "2.85 z-score"}
{"Sequence": "GACGAACCGAGTATCGAGAC", "fitted relative affinity": "1.55 z-score"}
{"Sequence": "TTAGGAATCCTACTGCTTTA", "fitted relative affinity": "-0.305 z-score"}
{"data": "Set 2", "target": "Sal-like protein 4, full length isoform B (SALL4, Homo sapiens, UniProt Q9UJQ4-2, residues 1-616)", "method": "universal PBM", "form": "double-stranded DNA, one strand shown", "sample": "in vitro", "tested at": "not given", "notes": "8-mer, flanks averaged, mean of replicates", "reading": "higher = stronger binding", "Residues (chain)": "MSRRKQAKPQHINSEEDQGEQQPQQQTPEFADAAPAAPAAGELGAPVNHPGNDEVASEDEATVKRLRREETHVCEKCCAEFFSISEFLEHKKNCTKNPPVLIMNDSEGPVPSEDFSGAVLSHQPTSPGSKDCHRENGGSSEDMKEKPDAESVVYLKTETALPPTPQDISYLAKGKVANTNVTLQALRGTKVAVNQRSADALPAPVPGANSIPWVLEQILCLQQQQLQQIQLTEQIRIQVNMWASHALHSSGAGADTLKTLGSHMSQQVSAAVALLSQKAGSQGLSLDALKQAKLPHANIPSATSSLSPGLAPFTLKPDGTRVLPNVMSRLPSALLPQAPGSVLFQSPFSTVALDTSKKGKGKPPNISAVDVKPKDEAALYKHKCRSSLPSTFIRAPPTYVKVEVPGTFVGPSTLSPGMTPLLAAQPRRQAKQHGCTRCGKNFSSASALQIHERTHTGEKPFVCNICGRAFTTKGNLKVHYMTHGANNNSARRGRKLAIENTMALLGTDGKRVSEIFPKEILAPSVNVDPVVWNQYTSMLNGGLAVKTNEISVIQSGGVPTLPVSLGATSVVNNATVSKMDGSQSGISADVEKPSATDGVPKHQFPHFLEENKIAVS"}
{"Sequence": "CAGACTGC", "E-score": -0.178}
{"Sequence": "ATACTAAC", "E-score": 0.109}
{"Sequence": "CAGACCCG", "E-score": -0.294}
{"Sequence": "CCTTTTCC", "E-score": 0.0337}
{"Sequence": "AGCCTGCC", "E-score": -0.247}
{"Sequence": "ATGATTTG", "E-score": 0.146}
{"Sequence": "ATAACCCC", "E-score": 0.0398}
{"Sequence": "GTCGGGCA", "E-score": -0.212}
{"data": "Set 3", "SMILES": "CCCOc1ccc([C@H]2[C@H](C(=O)O)[C@@H](c3ccc4c(c3)OCO4)CN2CC(=O)Nc2c(CC)cccc2CC)cc1", "observed": "cell-free assay", "method": "competition with immobilised ligand", "tested at": "1 µM"}
{"target": "CSNK1G1 (Homo sapiens, UniProt Q9HCP0)", "remaining binding": "100%"}
{"target": "TSSK1B (Homo sapiens, UniProt Q9BXA7)", "remaining binding": "92%"}
{"target": "ANKK1 (Homo sapiens, UniProt Q8NFD2)", "remaining binding": "65%"}
{"data": "Mixed results"}
{"Structure (SMILES)": "CCOC(=O)[C@@H]1CSCC(=O)N[C@@H](CC)C(=O)N(C)[C@@H](C)C(=O)N[C@H](CC(C)C)C(=O)N2CCC[C@@H]2C(=O)N(CC)CC(=O)N[C@H](CC(C)C)C(=O)N(C)[C@H](C)C(=O)N[C@@H](CC(C)C)C(=O)N1C", "sample": "hydrocarbon/water", "quantity": "logD", "result": 0.569}
{"note": "Excerpt of the above (set 3):"}
{"target": "ANKK1 (Homo sapiens, UniProt Q8NFD2)", "remaining binding": "65%"}
